Measurements gathered from unrelated publications.
Lines come from different studies, so protocols differ. “And” joins repeats or separate records; there may be more than shown.
Technique: steady-state kinetics
B1: UGT1A9 (Homo sapiens, UniProt O60656); chain GKLLVVPMDGSHWFTMRSVVEKLILRGHEVVVVMPEVSWQLGRSLNCTVKTYSTSYTLEDLDREFKAFAHAQWKAQVRSIYSLLMGSYNDIFDLFFSNCRSLFKDKKLVEYLKESSFDAVFLDPFDNCGLIVAKYFSLPSVVFARGILCHYLEEGAQCPAPLSYVPRILLGFSDAMTFKERVRNHIMHLEEHLLCHRFFKNALEIASEILQTPVTEYDLYSHTSIWLLRTDFVLDYPKPVMPNMIFIGGINCHQGKPLPMEFEAYINASGEHGIVVFSLGSMVSEIPEKKAMAIADALGKIPQTVLWRYTGTRPSNLANNTILVKWLPQNDLLGHPMTRAFITHAGSHGVYESICNGVPMVMMPLFGDQMDNAKRMETKGAGVTLNVLEMTSEDLENALKAVINDKSYKENIMRLSSLHKDRPVEPLDLAVFWVEFVMRHKGAPHLRPAAHDLTWYQYHSLDVIGFLLAVVLTVAFITFKCCAYGYRKCLGKKGRVKKAHKSKTH
B2: LYPLA2 (Homo sapiens, UniProt O95372); chain MCGNTMSVPLLTDAATVSGAERETAAVIFLHGLGDTGHSWADALSTIRLPHVKYICPHAPRIPVTLNMKMVMPSWFDLMGLSPDAPEDEAGIKKAAENIKALIEHEMKNGIPANRIVLGGFSQGGALSLYTALTCPHPLAGIVALSCWLPLHRAFPQAANGSAKDLAILQCHGELDPMVPVRFGALTAEKLRSVVTPARVQFKTYPGVMHSSCPQEMAAVKEFLEKLLPPV
B3: GTPBP3 P257H (Homo sapiens, UniProt Q969Y2); chain TRRSSGAPAPGSGATIFALSSGQGRCGIAVIRTSGPASGHALRILTAPRDLPLARHASLRLLSDPRSGEPLDRALVLWFPGPQSFTGEDCVEFHVHGGPAVVSGVLQALGSVPGLRPAEAGEFTRRAFANGKLNLTEVEGLADLIHAETEAQRRQALRQLDGELGHLCRGWAETLTKALAHVEAYIDFGEDDNLEEGVLEQADIEVRALQVALGAHLRDARRGQRLRSGVHVVVTGHPNAGKSSLVNLLSRKPVSIVSPEPGTTRDVLETPVDLAGFPVLLSDTAGLREGVGPVEQEGVRRARERLEQADLILAMLDASDLASPSSCNFLATVVASVGAQSPSDSSQRLLLVLNKSDLLSPEGPGPGPDLPPHLLLSCLTGEGLDGLLEALRKELAAVCGDPSTDPPLLTRARHQHHLQGCLDALGHYKQSKDLALAAEALRVARGHLTRLTGGGGTEEILDIIFQDFCVGK
B4: BH1128 (Halalkalibacterium halodurans, UniProt Q9KDT3); chain SLKQQTGREQWASRLGFILAAMGSAVGLGNIWRFSYVTGENGGAAFLLVYLGFIALIGIPIVLAEFTIGRRAQSDAVGSFEKLAPGKPWKVAGLMGVAAGFLILSFYGVIAGWILFYLFNYITGQLWSAPAEGFGGFFEGFIANPTLPLFWQALFMIATIWIVAIGVKKGIERSNKILMPLLGVLLIALAIYSLTLGGAKEGLAFLFSPDWSALKDPGVYLAAISQAFFTLSLGMGALITYGSYVSKDSRLPGAAVSVAGLDTAFAIIAGIMIFPAVFALGLSPSGGPGLVFVVLPDIFDSIRLGPIVGIAFFILLGAAALSSAVSLLEVPVAYFMRKFDWSRKQAAITLGVIITLLGIPSSLSFGVLGEVTIIPGLNIFDSVDFIASSVFLPLGGMIIALFIGWGWKTSDALAESDLTDSVWGKLWILSLRFIAPIAILIVFLSAFQIFFN
B5: cyc1 V329A (Streptomyces coelicolor, UniProt Q9K499); chain MHAFPHGTTATPTAIAVPPSLRLPVIEAAFPRQLHPYWPKLQETTRTWLLEKRLMPADKVEEYADGLCYTDLMAGYYLGAPDEVLQAIADYSAWFFVWDDRHDRDIVHGRAGAWRRLRGLLHTALDSPGDHLHHEDTLVAGFADSVRRLYAFLPATWNARFARHFHTVIEAYDREFHNRTRGIVPGVEEYLELRRLTFAHWIWTDLLEPSSGCELPDAVRKHPAYRRAALLSQEFAAWYNDLCSLPKEIAGDEVHNLGISLITHHSLTLEEAIGEVRRRVEECITEFLAVERDALRFADELADGTVRGKELSGAVRANVGNMRNWFSSAYWFHHESGRYMVDSWDDRSTPPYVNNEAAGEK
B6: sacB (Priestia megaterium, UniProt D5DC07); chain KGNDSKDFNNSYGISHITRDNMVKIPQQQNSDQFKVPAFDESTIKNIASAKGKNASGNTIDLDVWDSWPLQNADGTVATYHGYQIVFALAGDPKDSNDTSVYLFYKKAGDKSIDSWKNAGRVFKDSDKFVPNDPHLKNQTQEWSGSGTLTKDGKVRLFYTDYSGKQYGKQTLTTAQVNMSQPNDNTLKVDGVEDYKSIFDGDGKIYQTVQQFIDEGGYDTGDNHTLRDPHYIEDNGHKYLVFEANTGTEDGYQGEDSLYNRAYYGGNNPFFQSEKKKLLEGSNKEKASLANGALGIIELNDDYTLKKVMKPLITSNTVTDEIERANIFKKDGKWYLFTDSRGSKMTIDGIGQDDVYMLGYVSNTLTGKYKPLNDTGLVLHMDLDPNDKTFTYSHFAVPQTKGDNVVITSYMTNRGFYEDNHSTFAPSFLVNIDGSKTSVVKDRVLEQGQLTVDED
B7: enzyme S146A (Schizosaccharomyces pombe, UniProt Q9Y7P0); chain MFTGLVEAIGVVKDVQGTIDNGFAMKIEAPQILDDCHTGDSIAVNGTCLTVTDFDRYHFTVGIAPESLRLTNLGQCKAGDPVNLERAVLSSTRMGGHFVQGHVDTVAEIVEKKQDGEAIDFTFRPRDPFVLKYIVYKGYIALDGTALTITHVDDSTFSIMMISYTQSKVIMAKKNVGDLVNVEVDQIGKYTEKLVEAHIADWIKKTQA
B8: Paox H64N (Mus musculus, UniProt Q8C0L6); chain MAFPGPRVLVVGSGIAGLGAAQKLCSHRAAPHLRVLEATASAGGRIRSERCFGGVVELGAHWINGPSQDNPVFQLAAEFGLLGEKELSEENQLVDTGGHVALPSMIWSSSGTSVSLELMTEMARLFYGLIERTREFLNESETPMASVGEFLKKEISQQVASWTEDDEDTRKRKLAILNTFFNIECCVSGTHSMDLVALAPFGEYTVLPGLDCILAGGYQGLTDRILASLPKDTVAFDKPVKTIHWNGSFQEAAFPGETFPVLVECEDGARLPAHHVIVTVPLGFLKEHQDTFFEPPLPAKKAEAIKKLGFGTNNKIFLEFEEPFWEPDCQFIQVVWEDTSPLQDTALSLQDTWFKKLIGFLVQPSFESSHVLCGFIAGLESEFMETLSDEEVLLSLTQVLRRVTGNPQLPAAKSVRRSQWHSAPYTRGSYSYVAVGSTGDDLDLMAQPLPEDGTGTQLQVLFAGEATHRTFYSTTHGALLSGWREADRLVSLWDSQVEQSRPRL
B9: GSH1 R403E (Arabidopsis thaliana, UniProt P46309); chain AASPPTEEAVVATEPLTREDLIAYLASGCKTKDKYRIGTEHEKFGFEVNTLRPMKYDQIAELLNGIAERFEWEKVMEGDKIIGLKQGKQSISLEPGGQFELSGAPLETLHQTCAEVNSHLYQVKAVAEEMGIGFLGIGFQPKWRREDIPIMPKGRYDIMRNYMPKVGTLGLDMMLRTCTVQVNLDFSSEADMIRKFRAGLALQPIATALFANSPFTEGKPNGFLSMRSHIWTDTDKDRTGMLPFVFDDSFGFEQYVDYALDVPMYFAYRKNKYIDCTGMTFRQFLAGKLPCLPGELPSYNDWENHLTTIFPEVRLKRYLEMRGADGGPWERLCALPAFWVGLLYDDDSLQAILDLTADWTPAEREMLRNKVPVTGLKTPFRDGLLKHVAEDVLKLAKDGLERRGYKEAGFLNAVDEVVRTGVTPAEKLLEMYNGEWGQSVDPVFEELLY
B10: onr (Enterobacter cloacae, UniProt P71278); chain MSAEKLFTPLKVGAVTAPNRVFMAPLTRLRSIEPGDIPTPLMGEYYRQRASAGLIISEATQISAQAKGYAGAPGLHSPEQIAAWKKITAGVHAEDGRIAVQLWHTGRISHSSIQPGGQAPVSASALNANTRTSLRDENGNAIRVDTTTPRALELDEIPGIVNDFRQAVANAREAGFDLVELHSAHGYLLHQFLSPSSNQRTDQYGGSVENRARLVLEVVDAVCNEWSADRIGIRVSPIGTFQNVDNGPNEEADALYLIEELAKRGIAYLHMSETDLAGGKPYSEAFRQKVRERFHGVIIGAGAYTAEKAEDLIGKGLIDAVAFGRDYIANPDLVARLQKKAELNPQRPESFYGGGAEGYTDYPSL
UniProt P38999, sequence (whole entry, looked up): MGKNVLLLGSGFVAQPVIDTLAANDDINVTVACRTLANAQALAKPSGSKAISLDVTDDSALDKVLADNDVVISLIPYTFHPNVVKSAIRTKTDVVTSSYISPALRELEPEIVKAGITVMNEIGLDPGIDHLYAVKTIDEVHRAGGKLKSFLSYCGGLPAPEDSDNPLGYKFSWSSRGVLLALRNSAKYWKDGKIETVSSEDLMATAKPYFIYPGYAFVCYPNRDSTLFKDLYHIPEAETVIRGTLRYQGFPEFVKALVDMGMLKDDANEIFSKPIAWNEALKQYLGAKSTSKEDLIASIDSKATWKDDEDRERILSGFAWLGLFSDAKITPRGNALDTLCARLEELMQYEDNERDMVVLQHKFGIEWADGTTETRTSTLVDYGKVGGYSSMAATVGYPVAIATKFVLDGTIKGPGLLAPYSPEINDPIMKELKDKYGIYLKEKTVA
UniProt P50743, sequence (whole entry, looked up): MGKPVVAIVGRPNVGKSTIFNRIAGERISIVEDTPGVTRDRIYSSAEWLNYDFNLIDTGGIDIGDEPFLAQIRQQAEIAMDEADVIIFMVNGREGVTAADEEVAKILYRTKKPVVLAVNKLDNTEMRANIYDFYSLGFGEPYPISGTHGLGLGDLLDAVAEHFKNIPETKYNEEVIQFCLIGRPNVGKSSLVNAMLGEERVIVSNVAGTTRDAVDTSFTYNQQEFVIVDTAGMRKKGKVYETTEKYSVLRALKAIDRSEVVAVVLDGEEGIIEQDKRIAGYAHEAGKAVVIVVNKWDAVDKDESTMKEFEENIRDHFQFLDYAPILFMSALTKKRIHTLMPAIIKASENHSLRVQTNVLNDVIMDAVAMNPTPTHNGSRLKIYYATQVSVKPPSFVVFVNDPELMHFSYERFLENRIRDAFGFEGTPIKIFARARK
UniProt H6U1I8, sequence (whole entry, looked up): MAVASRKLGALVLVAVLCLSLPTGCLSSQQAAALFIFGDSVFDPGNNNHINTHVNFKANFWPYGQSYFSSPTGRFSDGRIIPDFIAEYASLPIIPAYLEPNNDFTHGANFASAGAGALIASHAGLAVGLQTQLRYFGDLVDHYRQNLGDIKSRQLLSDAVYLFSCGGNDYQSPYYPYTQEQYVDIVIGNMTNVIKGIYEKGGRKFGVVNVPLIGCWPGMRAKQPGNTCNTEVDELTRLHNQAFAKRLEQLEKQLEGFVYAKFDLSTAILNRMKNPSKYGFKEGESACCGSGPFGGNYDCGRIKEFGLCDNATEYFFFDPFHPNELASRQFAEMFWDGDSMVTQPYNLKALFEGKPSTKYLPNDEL
UniProt Q29437, sequence (whole entry, looked up): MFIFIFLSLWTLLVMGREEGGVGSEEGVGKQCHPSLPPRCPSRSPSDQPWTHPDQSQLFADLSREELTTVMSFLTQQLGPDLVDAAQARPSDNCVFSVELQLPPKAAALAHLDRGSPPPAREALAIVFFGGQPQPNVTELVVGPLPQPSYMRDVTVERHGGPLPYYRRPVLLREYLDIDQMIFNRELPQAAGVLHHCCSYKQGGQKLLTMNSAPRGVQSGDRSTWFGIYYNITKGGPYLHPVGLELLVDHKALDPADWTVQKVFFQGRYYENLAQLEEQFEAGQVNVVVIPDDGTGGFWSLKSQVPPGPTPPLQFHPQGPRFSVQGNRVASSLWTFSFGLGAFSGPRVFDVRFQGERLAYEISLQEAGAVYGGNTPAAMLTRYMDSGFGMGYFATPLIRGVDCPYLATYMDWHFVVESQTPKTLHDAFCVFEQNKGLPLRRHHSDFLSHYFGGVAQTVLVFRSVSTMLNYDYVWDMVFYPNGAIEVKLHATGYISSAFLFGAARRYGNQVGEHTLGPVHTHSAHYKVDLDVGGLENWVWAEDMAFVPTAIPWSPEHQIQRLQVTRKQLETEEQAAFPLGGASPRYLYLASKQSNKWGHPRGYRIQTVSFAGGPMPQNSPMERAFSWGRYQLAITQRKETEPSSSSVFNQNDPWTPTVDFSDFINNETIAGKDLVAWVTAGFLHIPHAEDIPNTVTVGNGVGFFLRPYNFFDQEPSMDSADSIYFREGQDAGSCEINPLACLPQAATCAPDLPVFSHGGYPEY

Molecule | substrate | pH | temperature | setting | added | quantity | result
B1 (UGT1A9) | O=c1c(O)c(-c2ccc(O)c(O)c2)oc2cc(O)cc(O)c12 | pH 7.4 | 37 °C | – | – | Vmax | 0.00382 µmol/min/mg and 0.00188 µmol/min/mg and 0.0033 µmol/min/mg
enzyme (Tanacetum cinerariifolium, UniProt H6U1I8) | CC(C)=C[C@@H]1[C@@H](C(=O)SCCn2ccnc2)C1(C)C | pH 7.5 | 25 °C | – | – | Km | 107 µM
B2 (LYPLA2) | CN(C)c1ccc(/N=N/c2ccc(C(=O)NCCCn3cc(CCCCCCCCCCCCCCCC(=O)SC[C@H](NC(=O)c4cc5ccc(O)cc5oc4=O)C(=O)N4CCOCC4)nn3)cc2)cc1 | pH 7.4 | 37 °C | – | – | Km | 19.3 µM
protein (Drosophila melanogaster, UniProt F2YPN7) | N[C@@H](CCC(=O)O)C(=O)O | pH 6.8 | – | not purified | – | Km | 69.4 µM
B3 (GTPBP3 P257H) | Nc1nc2c(ncn2[C@@H]2O[C@H](COP(=O)(O)OP(=O)(O)OP(=O)(O)O)[C@@H](O)[C@H]2O)c(=O)[nH]1 | pH 8 | 37 °C | KCl 300 mM | – | Km | 101 µM
B4 (BH1128) | N[C@@H](Cc1c[nH]c2ccccc12)C(=O)O | pH 8.5 | 22 °C | NaCl 50 mM | Na+ gradient, valinomycin 1 µM | Km | 1.7 µM
Saccharopine reductase (Saccharomyces cerevisiae, UniProt P38999) | NC(=O)C1=CN([C@@H]2O[C@H](COP(=O)(O)OP(=O)(O)OC[C@H]3O[C@@H](n4cnc5c(N)ncnc54)[C@H](OP(=O)(O)O)[C@@H]3O)[C@@H](O)[C@H]2O)C=CC1 | pH 7 | 25 °C | – | AASA, L-glutamate | Km | 11.4 µM
B5 (cyc1 V329A) | CC(C)=CCC/C(C)=C/CC/C(C)=C/CO[P@@](=O)(O)OP(=O)(O)O | pH 6.5 | 30 °C | – | MgCl2 10 mM | Km | 0.47 µM
B6 (sacB) | OC[C@H]1O[C@@](CO)(O[C@H]2O[C@H](CO)[C@@H](O)[C@H](O)[C@H]2O)[C@@H](O)[C@@H]1O | pH 6.6 | – | – | – | Km | 10800 µM
B7 (enzyme S146A) | Cc1nc2c(=O)[nH]c(=O)nc-2n(C[C@H](O)[C@H](O)[C@H](O)CO)c1C | pH 7.2 | 37 °C | apparent | – | Km | 3.8 µM
B8 (Paox H64N) | CC(=O)NCCCNCCCCNCCCN | pH 10 | 30 °C | – | – | Km | 240 µM
B9 (GSH1 R403E) | Nc1ncnc2c1ncn2[C@@H]1O[C@H](COP(=O)(O)OP(=O)(O)OP(=O)(O)O)[C@@H](O)[C@H]1O | pH 7 | – | – | – | Km | 1160 µM
Plasma amine oxidase (Bos taurus, UniProt Q29437) | C[N+](C)(C)CCOc1ccc2cc(CN)ccc2c1 | pH 7.2 | 30 °C | – | – | Km | 0.183 µM
B10 (onr) | CC1=CC(=O)N(c2ccccc2)C1=O | pH 7 | 25 °C | apparent, anaerobic | NADPH 100 µM | Km | 3.1 µM
engA (Bacillus subtilis, UniProt P50743) | Nc1nc2c(ncn2[C@@H]2O[C@H](COP(=O)(O)OP(=O)(O)OP(=O)(O)O)[C@@H](O)[C@H]2O)c(=O)[nH]1 | pH 7.5 | 37 °C | KCl 200 mM, free enzyme, apparent | GTP 0-1 mM | Km | 199 µM
